Measurements gathered from unrelated publications.
A part holds a random share of what one study measured.

Sample 1 — technique: aptamer microarray, sandwich; form: DNA with 2'F-ANA; sample: in vitro; tested at: 200 nM; with: Cy3 exosite-II aptamer, 400 nM; reading: higher = stronger binding; oligonucleotide: GGTTGGTGTGGTTGG
Target: Prothrombin, mature alpha-thrombin (F2, Homo sapiens, UniProt P00734)
Setting: whole 15-mer aptamer, many near background
Modification	mean fluorescence intensity [a.u.]
2'F-ANA at 5 6 7 9 12 14	47
2'F-ANA at 2 9 11 12 13 14 15	148
2'F-ANA at 1 2 3 6 7 10 12 15	91.2
2'F-ANA at 1 3 4 5 6 9 12 13 14 15	112
2'F-ANA at 2 3 5 7 8 9 13 15	76

Sample 2 — technique: protein binding microarray; form: double-stranded DNA, one strand shown; sample: in vitro; tested at: not given; reference: not given; reading: higher = stronger binding
Target: Histone acetyltransferase KAT6A, both winged helices, GST fusion (KAT6A, Homo sapiens, UniProt Q92794, residues 1-181)
Setting: 8-mer, flanks averaged, mean of 2 arrays, mostly near background
Construct (chain): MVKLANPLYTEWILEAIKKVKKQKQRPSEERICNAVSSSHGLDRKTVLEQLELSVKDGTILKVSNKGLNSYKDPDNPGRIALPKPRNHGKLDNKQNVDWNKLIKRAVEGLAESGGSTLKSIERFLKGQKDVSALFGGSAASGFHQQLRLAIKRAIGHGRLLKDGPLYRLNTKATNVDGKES
Oligonucleotide	E-score
CCCTTGTA	-0.167
CGAGTCAC	-0.0128
CTTGACCC	-0.0382
GCAACTGA	0.0701

Sample 3 — technique: RNAcompete; form: RNA; sample: in vitro; tested at: 20 nM; setting: 7-mer, probes averaged, single round; reference: mean of 7-mers; reading: higher = stronger binding
Target: PABPC1L2, full length, GST fusion (mouse, UniProt A0ABA7IW68)
Construct (chain): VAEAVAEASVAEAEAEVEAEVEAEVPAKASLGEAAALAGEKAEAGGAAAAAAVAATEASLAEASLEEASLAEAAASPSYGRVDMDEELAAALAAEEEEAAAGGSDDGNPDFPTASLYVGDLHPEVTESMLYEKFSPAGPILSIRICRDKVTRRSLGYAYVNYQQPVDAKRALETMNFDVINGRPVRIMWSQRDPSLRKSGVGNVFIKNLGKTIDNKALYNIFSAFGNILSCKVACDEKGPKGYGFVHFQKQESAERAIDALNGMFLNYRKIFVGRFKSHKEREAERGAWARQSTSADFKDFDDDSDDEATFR
Oligonucleotide	7-mer Z-score
CUAUGUC	-0.313
GUGAUUG	-0.0863
UUGAAGG	-0.132
CCCGGAU	-0.133
CACAGCU	-0.219

Single results of other studies
Substance	target	assay	test system	conditions	scale	endpoint	result
PhoQ, residues 284 288 289 292 302 303 QWGLFV	PhoP, residues 12 14 15 18 19 NIMAP (Escherichia coli, UniProt P23836)	Sort-seq, refers to: YFP reporter	E. coli	PhoQ-PhoP variant library, with: 10 µM Mg2+	reference: high Mg2+ state, higher = stronger signaling	fold induction	0.769

Some of these lines once more (sample 1):
Modification	mean fluorescence intensity [a.u.]
2'F-ANA at 1 3 4 5 6 9 12 13 14 15	112
